Published values pooled from the literature.
Lines come from different studies, so protocols differ. Numbers after ± are the reported error.
SIRT5: NAD-dependent protein deacylase sirtuin-5, mitochondrial (SIRT5, Homo sapiens, UniProt Q9NXA8)
Sequence of UniProt Q9NXA8 (whole entry, looked up): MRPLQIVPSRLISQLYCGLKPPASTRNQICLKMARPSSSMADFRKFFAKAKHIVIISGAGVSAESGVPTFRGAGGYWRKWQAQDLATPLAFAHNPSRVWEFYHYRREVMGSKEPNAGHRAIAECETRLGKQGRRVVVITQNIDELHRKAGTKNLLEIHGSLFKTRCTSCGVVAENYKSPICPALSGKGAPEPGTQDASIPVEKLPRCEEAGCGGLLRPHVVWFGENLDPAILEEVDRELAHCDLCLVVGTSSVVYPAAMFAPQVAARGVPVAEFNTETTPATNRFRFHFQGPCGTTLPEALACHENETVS
Formate-nitrite transporter: Formate-nitrite transporter (Plasmodium falciparum, UniProt O77389)
Sequence of UniProt O77389 (whole entry, looked up): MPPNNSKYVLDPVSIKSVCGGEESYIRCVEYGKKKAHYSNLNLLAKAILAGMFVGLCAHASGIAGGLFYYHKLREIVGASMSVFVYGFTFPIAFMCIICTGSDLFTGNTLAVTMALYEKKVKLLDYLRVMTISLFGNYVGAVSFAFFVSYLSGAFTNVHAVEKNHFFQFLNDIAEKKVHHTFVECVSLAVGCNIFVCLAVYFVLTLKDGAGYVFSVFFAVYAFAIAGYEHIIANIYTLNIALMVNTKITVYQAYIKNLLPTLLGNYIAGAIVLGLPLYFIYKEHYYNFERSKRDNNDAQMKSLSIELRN
blaNDM-1: Metallo-beta-lactamase type 2 (blaNDM-1, Klebsiella pneumoniae, UniProt C7C422)
Sequence of UniProt C7C422 (whole entry, looked up): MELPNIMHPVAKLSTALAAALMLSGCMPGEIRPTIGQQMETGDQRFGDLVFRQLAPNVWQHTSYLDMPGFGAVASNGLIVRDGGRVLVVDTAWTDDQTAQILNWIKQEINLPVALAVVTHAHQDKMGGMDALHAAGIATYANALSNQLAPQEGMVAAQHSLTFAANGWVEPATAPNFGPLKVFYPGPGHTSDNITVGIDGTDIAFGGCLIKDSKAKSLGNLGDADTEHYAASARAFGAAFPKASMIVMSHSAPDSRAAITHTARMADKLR
Sequence of UniProt Q16853 (whole entry, looked up): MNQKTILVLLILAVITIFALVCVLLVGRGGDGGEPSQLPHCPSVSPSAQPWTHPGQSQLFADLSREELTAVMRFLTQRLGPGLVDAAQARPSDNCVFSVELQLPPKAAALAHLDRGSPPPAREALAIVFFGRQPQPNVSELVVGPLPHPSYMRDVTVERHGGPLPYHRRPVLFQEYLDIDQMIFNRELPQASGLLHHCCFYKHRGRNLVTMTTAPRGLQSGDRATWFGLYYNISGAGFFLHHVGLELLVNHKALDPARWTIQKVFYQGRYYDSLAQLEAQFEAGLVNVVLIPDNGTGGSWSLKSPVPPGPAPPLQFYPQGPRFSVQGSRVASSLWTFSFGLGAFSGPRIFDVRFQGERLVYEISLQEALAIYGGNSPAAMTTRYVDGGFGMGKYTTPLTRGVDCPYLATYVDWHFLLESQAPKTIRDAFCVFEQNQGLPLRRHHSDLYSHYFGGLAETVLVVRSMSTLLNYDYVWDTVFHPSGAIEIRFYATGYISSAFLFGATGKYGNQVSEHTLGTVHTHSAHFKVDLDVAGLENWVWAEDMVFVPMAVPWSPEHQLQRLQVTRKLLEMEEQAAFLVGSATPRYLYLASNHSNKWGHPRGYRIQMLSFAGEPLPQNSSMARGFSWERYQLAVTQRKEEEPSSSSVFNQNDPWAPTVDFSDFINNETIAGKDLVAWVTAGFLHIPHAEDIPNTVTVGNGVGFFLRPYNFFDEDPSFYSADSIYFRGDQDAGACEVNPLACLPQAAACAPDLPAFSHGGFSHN
Sequence of UniProt P61073 (whole entry, looked up): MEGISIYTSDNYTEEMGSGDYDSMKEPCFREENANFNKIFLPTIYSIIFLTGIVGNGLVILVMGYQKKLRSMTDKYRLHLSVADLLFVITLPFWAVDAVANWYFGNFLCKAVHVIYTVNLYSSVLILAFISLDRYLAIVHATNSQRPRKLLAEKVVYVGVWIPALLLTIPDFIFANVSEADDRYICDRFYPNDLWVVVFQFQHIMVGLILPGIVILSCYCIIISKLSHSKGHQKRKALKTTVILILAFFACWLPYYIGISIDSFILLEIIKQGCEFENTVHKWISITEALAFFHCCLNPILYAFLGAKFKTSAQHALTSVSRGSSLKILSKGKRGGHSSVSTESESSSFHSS
Sequence of UniProt P33261 (whole entry, looked up): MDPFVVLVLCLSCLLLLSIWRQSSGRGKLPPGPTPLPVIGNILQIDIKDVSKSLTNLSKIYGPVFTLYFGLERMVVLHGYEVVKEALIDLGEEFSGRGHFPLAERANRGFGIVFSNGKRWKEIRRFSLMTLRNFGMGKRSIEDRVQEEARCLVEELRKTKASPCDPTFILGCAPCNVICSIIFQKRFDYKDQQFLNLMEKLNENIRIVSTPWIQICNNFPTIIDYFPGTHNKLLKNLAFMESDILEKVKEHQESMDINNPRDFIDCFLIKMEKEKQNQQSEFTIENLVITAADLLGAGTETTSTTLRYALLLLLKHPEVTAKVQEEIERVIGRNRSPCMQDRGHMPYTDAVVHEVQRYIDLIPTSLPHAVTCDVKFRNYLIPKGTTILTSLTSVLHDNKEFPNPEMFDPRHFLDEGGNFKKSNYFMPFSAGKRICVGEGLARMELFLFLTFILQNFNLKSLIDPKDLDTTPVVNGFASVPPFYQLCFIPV
Sequence of UniProt P25084 (whole entry, looked up): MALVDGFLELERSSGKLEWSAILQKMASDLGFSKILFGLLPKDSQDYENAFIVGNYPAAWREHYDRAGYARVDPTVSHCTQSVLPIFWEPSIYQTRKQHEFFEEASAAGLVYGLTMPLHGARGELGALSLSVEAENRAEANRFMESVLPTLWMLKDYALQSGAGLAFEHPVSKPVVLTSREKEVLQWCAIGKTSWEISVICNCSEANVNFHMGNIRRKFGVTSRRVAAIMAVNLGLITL

SMILES | target | test | system | setting | IC50
O=C(CCC(=O)NC(CCCCNC(=S)NCCc1noc(=O)[nH]1)C(=O)NC(Cc1c[nH]c2ccccc12)C(=O)NC1CCC1)NCCOCCOCCCCCCCl (stereo not drawn) | SIRT5 | enzyme activity, inhibitor | – | – | 152 ± 40 nM
O=C(C=C(O)C(F)(F)C(F)(F)C(F)(F)F)c1cccnc1 | Formate-nitrite transporter | L-lactate transport, inhibitor, fluorescence | yeast | pH 6.8, together with: L-lactate 1 mM | 118 ± 28 nM
C#CCNC(=O)c1ccc(S(=O)(=O)N[C@@H](CCCCNC(=O)c2cc(OS(=O)(=O)F)c3ccccc3c2O)C(=O)N[C@@H](Cc2c[nH]c3ccccc23)C(=O)NC2CCC2)cc1 | SIRT5 | inhibitor, fluorogenic | – | 0 h preincubation, His-tagged enzyme 150 nM, together with: NAD+ 500 µM | 28900 ± 11700 nM
CC(C)(COP(=O)(O)OP(=O)(O)OC[C@H]1O[C@@H](n2cnc3c(N)ncnc32)[C@H](O)[C@@H]1OP(=O)(O)O)[C@@H](O)C(=O)NCCC(=O)NCCSCC(=O)N[C@@H](CO)C(=O)NCC(=O)N[C@@H](CCCNC(=N)N)C(=O)N[C@@H](CCCNC(=N)N)C(=O)N[C@@H](CCCNC(=N)N)C(=O)N[C@@H](CCCNC(=N)N)C(=O)N[C@@H](CCCNC(=N)N)C(=O)N[C@@H](CCCNC(=N)N)C(N)=O | NAA40 (Homo sapiens, UniProt Q86UY6) | enzyme activity, inhibitor, fluorescence | – | – | 674 nM
C#CCNC(=O)c1ccc(S(=O)(=O)N[C@@H](CCCCNC(=O)c2cncc(OS(=O)(=O)F)c2)C(=O)N[C@@H](Cc2c[nH]c3ccccc23)C(=O)NC2CCC2)cc1 | SIRT5 | inhibitor, fluorogenic | – | 0 h preincubation, His-tagged enzyme 150 nM, together with: NAD+ 500 µM | 100000 ± 135000 nM
NC(=O)C[C@H]1NC(=O)[C@@H](CCC(=O)O)NC(=O)[C@H](CCC(=O)O)NC(=O)[C@@H]2CCCN2C(=O)[C@H](C(c2ccccc2)c2ccccc2)NC(=O)[C@@H]2CCCN2C(=O)[C@H]2CCCN2C(=O)[C@H](Cc2c[nH]cn2)NC1=O | blaNDM-1 | enzyme activity, inhibitor, absorbance | – | – | 275000 nM
Cc1ccc(N2CC3CC(C2)N3)cc1C(=O)NC1(c2ccc3c4c(cccc24)C(=O)N3C)CC1 | CYP2C19 (Homo sapiens, UniProt P33261) | enzyme activity, inhibitor | – | – | 7950 nM
COc1ccc(C(=O)C=C(O)C(F)(F)C(F)(F)F)c(O)c1 | Formate-nitrite transporter | L-lactate transport, inhibitor, fluorescence | yeast | pH 6.8, together with: L-lactate 1 mM | 26 ± 4 nM
CC(C)C[C@@H](N)C(=O)NCC(=O)N[C@H](C)C(=O)N[C@H](CO)C(=O)N[C@H](Cc1c[nH]c2ccccc12)C(=O)N[C@H](Cc1c[nH]cn1)C(=O)N[C@H](CCCNC(=N)N)C(=O)N1CCC[C@@H]1C(=O)N[C@H](CC(=O)O)C(=O)N[C@H](CCCCN)C(=O)N[C@H](CCCCN)C(=O)N[C@H](CCCNC(=N)N)C(=O)NCCCCCC(=O)N[C@@H](CCCCN)C(=O)N[C@@H](CCCNC(=N)N)C(=O)N[C@@H](CCCCN)C(=O)N[C@@H](CCC(N)=O)C(=O)N[C@@H](CCCNC(=N)N)C(=O)NCC(=O)N1CCC[C@H]1C(=O)NCC(=O)N[C@@H](CCCNC(=N)N)C(=O)N[C@@H](C)C(=O)N[C@@H](Cc1ccccc1)C(N)=O | CXCR4 (Homo sapiens, UniProt P61073) | antagonist | – | concentration not given | 101 nM
CCCCCC(=O)CC(=O)N[C@H]1CCOC1=O | lasR (Pseudomonas aeruginosa, UniProt P25084) | reporter gene, antagonist | Escherichia coli, JLD271 with LasR plasmid | together with: OdDHL 2 nM | 140 nM
Cc1ccc2c(n1)c(-c1cccc(S(C)(=O)=O)c1)c(C)n2C/C(F)=C/CN | AOC3 (Homo sapiens, UniProt Q16853) | enzyme activity, inhibitor, fluorescence | – | – | > 30000 nM
CC(C)C[C@H]1NC(=O)[C@@H]2CCCN2C(=O)[C@@H](CS)NC(=O)[C@@H](C(C)C)NC(=O)[C@H](CO)NC(=O)[C@H](CCC(=O)O)NC(=O)[C@@H](CCCNC(=N)N)NC(=O)[C@H](C)NC1=O | blaNDM-1 | enzyme activity, inhibitor, absorbance | – | – | 471000 nM

A few entries again:
SMILES | target | test | system | setting | IC50
Cc1ccc2c(n1)c(-c1cccc(S(C)(=O)=O)c1)c(C)n2C/C(F)=C/CN | AOC3 (Homo sapiens, UniProt Q16853) | enzyme activity, inhibitor, fluorescence | – | – | > 30000 nM
